{"data": "Results pooled from the literature", "note": "Numbered parts are unrelated; each lists some results of a single study. Values joined by “and” are separate records of one study, mostly repeats; a detail may differ.", "UniProt Q9NYY3, sequence (whole entry, looked up)": "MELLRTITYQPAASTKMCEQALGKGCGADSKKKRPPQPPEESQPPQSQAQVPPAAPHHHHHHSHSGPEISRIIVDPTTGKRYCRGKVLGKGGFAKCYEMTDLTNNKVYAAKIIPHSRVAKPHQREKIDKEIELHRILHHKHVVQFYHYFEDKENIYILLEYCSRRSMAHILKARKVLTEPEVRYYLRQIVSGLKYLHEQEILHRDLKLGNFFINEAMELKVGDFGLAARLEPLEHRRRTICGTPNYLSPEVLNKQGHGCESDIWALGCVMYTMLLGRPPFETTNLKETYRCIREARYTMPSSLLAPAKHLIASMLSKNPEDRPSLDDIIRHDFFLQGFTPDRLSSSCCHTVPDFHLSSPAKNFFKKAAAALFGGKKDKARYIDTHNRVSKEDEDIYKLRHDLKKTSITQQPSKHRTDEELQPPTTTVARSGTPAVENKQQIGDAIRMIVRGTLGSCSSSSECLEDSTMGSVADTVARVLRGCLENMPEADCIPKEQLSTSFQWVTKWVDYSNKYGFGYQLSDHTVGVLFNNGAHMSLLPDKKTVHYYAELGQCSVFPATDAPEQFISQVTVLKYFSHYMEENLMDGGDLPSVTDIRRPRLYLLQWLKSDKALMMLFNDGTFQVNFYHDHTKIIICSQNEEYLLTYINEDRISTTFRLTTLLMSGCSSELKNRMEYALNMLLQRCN", "UniProt Q9BYT3, sequence (whole entry, looked up)": "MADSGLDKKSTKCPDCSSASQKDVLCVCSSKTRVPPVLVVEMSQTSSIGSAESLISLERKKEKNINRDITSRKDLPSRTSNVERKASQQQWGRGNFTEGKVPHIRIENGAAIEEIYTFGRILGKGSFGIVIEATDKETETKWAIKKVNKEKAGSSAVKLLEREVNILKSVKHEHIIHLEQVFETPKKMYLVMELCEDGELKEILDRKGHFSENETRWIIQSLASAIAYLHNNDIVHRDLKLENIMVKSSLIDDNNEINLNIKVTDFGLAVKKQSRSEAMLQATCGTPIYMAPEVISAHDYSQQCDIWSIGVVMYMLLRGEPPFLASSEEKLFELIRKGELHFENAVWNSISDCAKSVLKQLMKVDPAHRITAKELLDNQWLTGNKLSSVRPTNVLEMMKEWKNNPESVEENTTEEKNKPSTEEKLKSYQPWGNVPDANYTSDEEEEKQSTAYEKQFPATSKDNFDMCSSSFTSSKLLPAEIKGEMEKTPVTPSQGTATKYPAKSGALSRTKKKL", "UniProt O15264, sequence (whole entry, looked up)": "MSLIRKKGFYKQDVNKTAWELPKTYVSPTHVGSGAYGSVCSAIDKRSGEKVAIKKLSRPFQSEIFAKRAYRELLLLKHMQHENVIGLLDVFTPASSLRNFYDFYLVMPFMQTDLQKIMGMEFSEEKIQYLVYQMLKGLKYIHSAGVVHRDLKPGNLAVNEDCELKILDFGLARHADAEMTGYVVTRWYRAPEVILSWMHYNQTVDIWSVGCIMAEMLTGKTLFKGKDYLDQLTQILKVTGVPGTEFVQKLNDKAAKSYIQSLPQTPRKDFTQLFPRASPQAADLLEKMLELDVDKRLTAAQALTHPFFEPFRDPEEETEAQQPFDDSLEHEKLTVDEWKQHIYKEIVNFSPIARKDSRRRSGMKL", "UniProt P68400, sequence (whole entry, looked up)": "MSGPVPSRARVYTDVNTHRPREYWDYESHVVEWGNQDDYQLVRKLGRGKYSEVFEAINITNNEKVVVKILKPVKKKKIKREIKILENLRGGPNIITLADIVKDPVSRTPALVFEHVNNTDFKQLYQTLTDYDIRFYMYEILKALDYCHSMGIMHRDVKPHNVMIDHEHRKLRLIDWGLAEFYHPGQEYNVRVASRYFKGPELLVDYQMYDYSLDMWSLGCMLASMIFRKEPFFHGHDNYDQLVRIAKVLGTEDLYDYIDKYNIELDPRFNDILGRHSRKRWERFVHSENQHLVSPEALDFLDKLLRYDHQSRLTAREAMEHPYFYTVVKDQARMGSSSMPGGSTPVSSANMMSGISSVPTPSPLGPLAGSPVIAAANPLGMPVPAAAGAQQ"}
{"data": "Set 1", "cell line": "Huh-7", "tested at": "10 µM", "time": "24 h"}
{"SMILES": "O=C(O)CCCc1ccc(N(CCCl)CCCl)cc1", "viability [%]": 61.6}
{"SMILES": "CC(C)(N)Cc1ccccc1", "viability [%]": 102}
{"SMILES": "c1ccc2nc(N3CCNCC3)ccc2c1", "viability [%]": 93.3}
{"SMILES": "CC(CC(C(N)=O)(c1ccccc1)c1ccccc1)N(C)C (stereo not drawn)", "viability [%]": 95.8}
{"data": "Set 2", "target": "DNA polymerase theta, ATPase domain (POLQ, Homo sapiens, UniProt O75417)", "effect on": "enzyme activity", "mode": "inhibitor", "tested at": "77 µM", "UniProt O75417, sequence (whole entry, unmodified, looked up)": "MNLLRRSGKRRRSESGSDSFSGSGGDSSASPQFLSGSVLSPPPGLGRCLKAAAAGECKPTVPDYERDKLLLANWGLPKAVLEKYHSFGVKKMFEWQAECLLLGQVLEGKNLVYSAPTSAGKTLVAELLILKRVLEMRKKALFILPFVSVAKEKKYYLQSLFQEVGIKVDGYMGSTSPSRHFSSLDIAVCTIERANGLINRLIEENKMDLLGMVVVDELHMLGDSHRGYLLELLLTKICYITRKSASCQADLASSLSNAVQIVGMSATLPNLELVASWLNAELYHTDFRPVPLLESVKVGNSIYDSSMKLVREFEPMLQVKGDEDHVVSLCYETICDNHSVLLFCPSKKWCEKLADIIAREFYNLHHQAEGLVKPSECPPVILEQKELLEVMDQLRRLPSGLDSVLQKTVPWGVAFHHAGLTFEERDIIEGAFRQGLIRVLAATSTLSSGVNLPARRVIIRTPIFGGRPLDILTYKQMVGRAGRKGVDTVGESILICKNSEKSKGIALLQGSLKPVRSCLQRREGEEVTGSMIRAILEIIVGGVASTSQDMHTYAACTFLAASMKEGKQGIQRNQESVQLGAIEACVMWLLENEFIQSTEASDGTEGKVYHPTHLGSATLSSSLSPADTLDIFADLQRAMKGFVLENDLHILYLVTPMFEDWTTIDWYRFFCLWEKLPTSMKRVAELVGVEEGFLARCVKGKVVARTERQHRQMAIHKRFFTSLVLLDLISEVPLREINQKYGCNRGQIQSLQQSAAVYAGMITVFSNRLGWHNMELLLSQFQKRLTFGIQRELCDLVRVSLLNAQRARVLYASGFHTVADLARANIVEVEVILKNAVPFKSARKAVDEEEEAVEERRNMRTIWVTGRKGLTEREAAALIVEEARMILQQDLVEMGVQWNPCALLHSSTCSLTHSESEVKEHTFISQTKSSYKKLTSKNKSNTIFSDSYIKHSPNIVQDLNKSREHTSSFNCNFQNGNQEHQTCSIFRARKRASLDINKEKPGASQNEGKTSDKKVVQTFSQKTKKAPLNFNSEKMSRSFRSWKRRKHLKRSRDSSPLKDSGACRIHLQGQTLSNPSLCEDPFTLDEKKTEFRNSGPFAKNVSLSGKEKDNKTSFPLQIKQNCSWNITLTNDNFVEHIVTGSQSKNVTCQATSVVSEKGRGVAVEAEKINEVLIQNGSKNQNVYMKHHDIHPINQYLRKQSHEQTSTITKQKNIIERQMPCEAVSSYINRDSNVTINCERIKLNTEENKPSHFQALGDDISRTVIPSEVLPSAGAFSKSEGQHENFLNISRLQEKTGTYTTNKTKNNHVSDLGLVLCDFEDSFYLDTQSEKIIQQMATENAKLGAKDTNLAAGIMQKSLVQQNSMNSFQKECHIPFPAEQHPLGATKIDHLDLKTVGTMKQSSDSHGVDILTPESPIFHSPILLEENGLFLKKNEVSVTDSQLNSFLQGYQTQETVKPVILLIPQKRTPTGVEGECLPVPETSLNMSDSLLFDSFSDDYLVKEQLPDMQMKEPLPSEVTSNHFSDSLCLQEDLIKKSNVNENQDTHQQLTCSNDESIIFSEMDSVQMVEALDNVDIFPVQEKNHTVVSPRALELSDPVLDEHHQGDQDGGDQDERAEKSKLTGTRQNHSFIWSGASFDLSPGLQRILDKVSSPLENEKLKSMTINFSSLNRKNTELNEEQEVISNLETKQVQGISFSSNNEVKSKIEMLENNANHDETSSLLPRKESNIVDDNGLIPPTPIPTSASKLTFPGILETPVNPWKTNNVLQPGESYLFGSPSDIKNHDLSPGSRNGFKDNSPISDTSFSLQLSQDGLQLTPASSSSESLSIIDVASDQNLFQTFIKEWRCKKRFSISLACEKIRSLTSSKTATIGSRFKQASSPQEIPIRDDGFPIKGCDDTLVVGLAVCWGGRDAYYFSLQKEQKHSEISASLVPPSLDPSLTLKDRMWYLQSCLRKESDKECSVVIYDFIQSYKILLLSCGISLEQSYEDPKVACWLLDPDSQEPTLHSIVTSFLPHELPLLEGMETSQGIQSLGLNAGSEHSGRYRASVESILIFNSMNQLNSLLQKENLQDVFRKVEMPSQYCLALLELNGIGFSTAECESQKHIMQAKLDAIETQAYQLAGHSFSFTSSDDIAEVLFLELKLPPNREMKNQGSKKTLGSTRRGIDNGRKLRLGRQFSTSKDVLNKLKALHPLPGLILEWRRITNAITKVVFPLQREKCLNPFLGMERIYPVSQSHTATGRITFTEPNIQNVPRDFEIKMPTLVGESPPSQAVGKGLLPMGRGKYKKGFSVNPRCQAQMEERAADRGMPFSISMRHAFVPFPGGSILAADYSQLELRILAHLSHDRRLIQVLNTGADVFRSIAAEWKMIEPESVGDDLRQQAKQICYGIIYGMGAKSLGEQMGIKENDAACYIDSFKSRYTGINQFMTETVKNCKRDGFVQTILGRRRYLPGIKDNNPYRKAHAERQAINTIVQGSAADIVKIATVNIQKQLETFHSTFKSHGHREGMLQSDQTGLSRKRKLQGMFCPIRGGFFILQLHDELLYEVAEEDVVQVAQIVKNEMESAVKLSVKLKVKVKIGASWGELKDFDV"}
{"Compound": "CCCN(CCC)C1CCc2cccc(O)c2C1 (stereo not drawn)", "remaining activity [%]": 113}
{"Compound": "Cc1ncc(CNC(=O)N(CCCl)N=O)c(N)n1", "remaining activity [%]": 107}
{"Compound": "O=C1CCC[C@@H]2[C@H]3CCCN4CCC[C@@H](CN12)[C@@H]34", "remaining activity [%]": 96.1}
{"Compound": "O=c1ccc2[nH]cc(C3=CCNCC3)c2[nH]1", "remaining activity [%]": 95.8}
{"Compound": "CCCN(CCC)[C@H]1CCc2c(F)ccc(O)c2C1", "remaining activity [%]": 99.9}
{"data": "Set 3", "cell line": "A-375", "tested at": "100 µM", "time": "18 h"}
{"Compound": "COC(=O)Nc1nc2ccccc2[nH]1", "viability [%]": 85.5}
{"Compound": "CCC(=O)O[C@H]1CC[C@H]2[C@@H]3CC[C@H]4CC(=O)[C@H](C)C[C@]4(C)[C@H]3CC[C@]12C", "viability [%]": 52}
{"Compound": "COc1ccc2c(c1)[C@]13CCCC[C@@H]1[C@H](C2)N(C)CC3", "viability [%]": 95.4}
{"Compound": "Cl[C@H]1[C@H](Cl)[C@@H](Cl)[C@@H](Cl)[C@H](Cl)[C@H]1Cl", "viability [%]": 9.84}
{"data": "Set 4", "Compound": "CN[C@@H]1C[C@H]2O[C@@](C)([C@@H]1OC)n1c3ccccc3c3c4c(c5c6ccccc6n2c5c31)C(=O)NC4", "effect on": "enzyme activity", "mode": "inhibitor", "tested at": "0.5 µM"}
{"target": "STK33 (Homo sapiens, UniProt Q9BYT3)", "technique": "radiometric", "remaining activity": "10.7%"}
{"target": "MAPK13 (Homo sapiens, UniProt O15264)", "reference": "control", "remaining activity": "86.6%"}
{"target": "CSNK2A1 (Homo sapiens, UniProt P68400)", "reference": "control", "remaining activity": "101%"}
{"target": "PLK2 (Homo sapiens, UniProt Q9NYY3)", "reference": "control", "remaining activity": "94.8% and 97.5%"}
{"target": "WNK2 (Homo sapiens, UniProt Q9Y3S1)", "reference": "control", "remaining activity": "93.1%"}
